Results pooled from the literature.
A part holds a random share of what one study measured.

Set 1
Target: RING finger protein unkempt homolog, zinc fingers 1-6, GST-SBP tag (UNK, Homo sapiens, UniProt Q9C0B0, residues 30-357)
Method: RNA Bind-n-Seq
Form: RNA
Matrix: in vitro
Tested at: not given
Notes: RNA with constant flanks, human and mouse sites, ends assumed
Relative to: input RNA pool
Direction: higher = stronger binding
Shared flanks, not repeated: GGGAGUUCUACAGUCCGACGAUC … CAACAGAGGAUUGAGCAUCA
Construct (chain): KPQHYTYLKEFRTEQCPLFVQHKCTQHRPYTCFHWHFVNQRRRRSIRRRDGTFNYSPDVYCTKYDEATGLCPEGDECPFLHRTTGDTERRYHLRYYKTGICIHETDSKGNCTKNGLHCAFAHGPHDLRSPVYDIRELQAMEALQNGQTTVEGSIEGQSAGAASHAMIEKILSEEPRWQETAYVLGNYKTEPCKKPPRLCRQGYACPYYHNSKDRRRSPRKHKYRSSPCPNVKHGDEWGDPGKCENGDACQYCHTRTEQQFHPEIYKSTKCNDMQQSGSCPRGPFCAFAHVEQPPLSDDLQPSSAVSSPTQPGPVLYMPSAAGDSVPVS
Strand	bound/input enrichment [ratio]
GGUGCAAAAAGGCAGAAGGCCAGGUUGACAGUGUUUUGUCUUGUCCCUCCGUGUUUUCUAGAAUGUUUUACACCUGGCUGGUGAAUCUGCUGAGACCAGGUUUUCUGAGACUUGAUUAAA	0.261
UUUUCUAAGUUCCAGAAUAAUAGUGUCAUUAUUAUAGACUAUAUGUUUUGAAGUUUGAUAUUAUAAUGGGAUAUUCAUUUUUUGUUCUUUUCUUGACUCCUUUCUCAAGUGUGUGAUAAG	0.413
GGAAGGCGCUGUUUGAAGCUUGUGGCUCUUUGAAGUCUGAAAGACAUCGGCAGAGGACCCUUUAGACGGCACAACUGUUACUCUAGGGAGUUGAUUUUUUUUUCUUAAGAGAUUUAAAAA	1.37
GGGUCUACUAUAUGUAAAAAGUAUACAUAUAAAAAUAUAUAUAUAUAAUGUUUGUUUAAAAUAGAGUAUUUUUAUUUCCUCCCUAACUCAUCAUUGAAGAGGUGAUAUUACACUUCAGAU	4.66
AUGUCCAAGUCACUGAAAAACUUUAUCACCAUUAAAGAUGCCUUGAAGAAGCACUCAGCACGGCAGCUGCGACUGGCAUUCCUCAUGCACUCAUGGAAAGACACACUGGACUAUUCCAGC	0.0777
CUGUGUGUAAAAUAUUUAACCAUAAGUCAAGUACAGUGUACUAUGUUUAAUAAAGUUACAUUUAAUGCAUUUAUUGCAUAUAUGAAUAUAUACAUGAAGAGGCUUUAUGUCUUCUGGUAU	0.202
GAGGGAAGAGAUGAAUCUUCAAGGAUACCUACCUCUGAUACAUCAUCUAGAUCUCAUAUUUUUAGAAGAGAAUCAAAUGAAGUGGUUCACCUUGAAGCACAGAAUGAUCCUCUUGGAGCU	0.562
ACAAAACUACAUGAUACGUUUGGAUUUGUGGAUGAAGAUGUAUUCUUUCAGCUUAGUGCUGUCAAAGGGAAAACCCCCCAAGUAGGUGACAGAGUAUUGGUUGAAGCUACUUAUAAUCCU	0.549
AAAUCGUGUGUGUCCAAUAUUGAAAGUGCUUUAUCUACACUCCAGUAUGUAAGCAGUAUAGUAGUUUCUUUAGAGAAUAGGUCAGCCAUUGUAAAGUACAAUGCAAGCUUAGUCACUCCA	9.31
UUUAUCUUAGAAAGCCUUGGGUCAUUCACAGGUAUCCAACCAGCCAUUGUUUAGUUUGUUUUUGAAGGGGUUUGAUAAUGCUUUUUAAGUUGUACAGAAUGCUUAAUCCAUCUUAUUACU	3.68
UAUCUUAUAUCACCUCUAGAUUUUGUACCUGAAGCCUUGUUUGGAAUUCUAGGCUUUCUAGAUGAUUUCUUUGUCAUCUUUUUAUUGCUUAUCUACAUCUCUAUUAUGUAUCGAGAAGUG	1.41

Set 2
Target: Hepatocyte nuclear factor 3-alpha (Foxa1, Mus musculus, UniProt P35582, residues 1-468, full length assumed)
Chain of UniProt P35582 (whole entry, looked up): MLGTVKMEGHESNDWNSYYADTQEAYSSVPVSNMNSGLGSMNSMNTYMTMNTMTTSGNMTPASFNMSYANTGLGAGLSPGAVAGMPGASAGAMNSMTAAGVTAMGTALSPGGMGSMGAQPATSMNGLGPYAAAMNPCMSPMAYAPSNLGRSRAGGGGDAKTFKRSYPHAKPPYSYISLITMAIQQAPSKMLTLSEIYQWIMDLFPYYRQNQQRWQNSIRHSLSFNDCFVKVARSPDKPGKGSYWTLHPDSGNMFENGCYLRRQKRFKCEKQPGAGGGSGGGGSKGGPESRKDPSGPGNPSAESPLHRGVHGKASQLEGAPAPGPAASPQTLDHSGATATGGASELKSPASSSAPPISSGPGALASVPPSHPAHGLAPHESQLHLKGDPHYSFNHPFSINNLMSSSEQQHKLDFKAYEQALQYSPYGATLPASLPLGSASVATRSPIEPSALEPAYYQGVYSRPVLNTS
Method: EMSA with sequencing
Form: double-stranded DNA, one strand shown
Matrix: in vitro
Tested at: 10 and 20 nM
Notes: whole designed probe, mean of two concentrations, ends assumed
Relative to: negative control set to 0
Direction: higher = stronger binding
Shared flanks, not repeated: GTGAGCGGTGCCCATTGATGGGGAAC … TTTCACTGGGATCGTGGGGAC
Strand	normalised bound fraction [ratio]
TGATGAGAAACATGATAATTATTTAGTCTGAAAGGATCTTCTCCAATAATTTTTTTTTGTCGTCTCCACCCCCTGATACATTCCTGACTAAATGCAAACAAACCTAAATTGAGGGAAATTCTATGCAATACCTAACCATTATTCATCAAATGTACACAGGAGTACAGTGACACAATCATGGTTCACTGTAACC	0.331
CACTCATAGTCTTGCTATCCTTCATATACAGAGATGACCCTCCCAAGCCTAAAATCAACAGGGGGAGGCATAGAGCTGTCCTTCTGGCTCTAATGTTTGCTTTACCATTCCACGCCCATCATCTTAGTCCAGCATGTGAGAGCCAGTGTGAAGTGAGCAGAATATGGCATAAGTATGGAGTCATACATCCTTA	0.353
CACCGCGCTCGCACGGCTTTGTCCGTGCTACAAAGCAGCCTGTTAAACTATTGGAACTAATGCGCCGCAGCTGCGCGAGTGACTTCTGCTGCTTATGTACATAAAAAGGGGGGAGGGCTTCCTGTAACCATCAGATGCCTGCTGCTGGGTTGTTTGGCTAGTCTTTCCATTTGCTTATTCCTGAATCCAAAGG	0.324
ACTCTCTCACGCTCACATGCACCTTCAGTTTTTCCCTTGCTGTCCCCCCATATGGGAGGAAGAGAAGATGTCTCCAGAAGTGTGAGCAGAGTAAGTAAACATGGAGAGTTTGTGATGCTTTGGTGACAATTACCTCTCCTTTCTGCTTCTGGCTGCTGTGGTTCCAGATGGTGGAAACGTTCCGTCCGATTCT	0.291
ATCTTCCCCCTCTTCCTTGCCCCACCAGCTCACCTTCCCGGGTTGTTTACTTTGAGTATTTATTTTCAAGCCGGCATTCGTTAACCCTCTTCTGGCGCAAACTGCACATTGGTCTGGATGAATCATGGTCCTTTGGCGACGCCAGGCTCCGGGAGAGCAAAGCACCGTGTCAGGGCCATGATCCGGGGTGGCC	0.32
AGCTTAAGGAAGTTCTAACGCCCCCCTCCCCTCCTTTATTTTTGAGTTGAAAGAGGGTAGAATCAAAAACAATACTGAGAGGGGTCTAAAAATGCAAACACAGAGAGTTGCTGGTTTAGGAGGGCTGGGAGGCTATGGGAGACCATAGGCATAGAGAAAACATTCCTTCTCTGTGACTCTCGGGCGCGAGCGA	0.453
ATCTTCCCCCTCTTCCTTGCCCCACCAGCTCACCTTCCCGGGTTATTTGCACAAAGGAAAATAAATAAAGCCGGCATTCGTTAACGCAGTTCACGCGCATACTGCTGTTTGCTCTGCATCTAACATGGTCCTTACGCGACGCCAGGCTCCGGGAGAGCAAAGCACCGTGTCAGGCGCATGATCCGGGGTGGCC	0.389
TGTGAGCCACTGCACCCAGCCAAGTGGTTTGTTTATATTCAAGAGTGAGGCACTAAAATGCTAATTGGAAGCTTTGTGTACATGGGTTGGGCTAAATGACTTATATGACTCCTCACAGTGAAACAGGTCAATGGTCAATGGTCTCATTGTCTGAAGTGTTATCTGAGTTCATTGTCTCATGACCAAGAAAATT	0.197

Set 3
Target: RNA binding protein fox-1 homolog 2, RRM domain, GST-SBP tag (RBFOX2, Homo sapiens, UniProt O43251-10, residues 100-194)
Method: RNA Bind-n-Seq
Form: RNA
Matrix: in vitro
Tested at: 365 nM
Notes: natural RNA segment, single round, ends assumed
Relative to: no-protein control
Direction: higher = stronger binding
Shared flanks, not repeated: GGGAGUUCUACAGUCCGACGAUC … UGGAAUUCUCGGGUGCCAA
Construct (chain): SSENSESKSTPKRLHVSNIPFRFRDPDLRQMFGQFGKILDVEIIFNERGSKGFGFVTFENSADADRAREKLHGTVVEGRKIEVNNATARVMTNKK
Strand	RBNS enrichment (R)
UAAAAAUGGACAGCCAAUGUGUUCAGCCGCUCUGGCCUGUACCCCCUGGGGCCUCUAGUGUAUUGUAUUAUAUUUCUGUGGAAAGUCAUGUUUAGUCAAAUUGGAAUCCA	0.638
CACCCAGAGGUGGCCCUCCCAGGCUGGUAUUUAUCUGCAAGGUUGUAGUCAAGAGGUUUUUCUCCCCGCUUUUUGUUUUUAAGCUUCUAGACACUCCUUGAAAUGUGUGU	1.42
CCCCAGACCUGCACUGCCUUUGAGCUGGGUCCUAAUUGCACAUGGCUUGUGACGAAUGAAUCUUGCAUUUUUUAGUGAUCGGAGAAGGGAUGGAUCAUAGGAUUCUGAUU	1.13
GUUUCUCACAUUGCUGUAUUUUAGAAAAUAGGGGUUAAGACUGAUAACAACCUUUUACAUUGUGACUGUGUUUGCAUUGUCUAAUGACAGAUAAAUCCUUAACAUUUCUC	0.661
CAGGUAGUAGAGCAGCAGCUUCGUGCUCUCAGCGGUGGCUGGCUGGCAUUUUUCUCUAGCGUUGUGGUGCCACCUUCCCUUCUUGUCCCAAGGUUAUAAGGCCUUGUCUU	0.371
AUUCAGCCCGUUUUUUAAAAAAGCUAAAUACAGUAGCAGCCAGCAGCCAGUCACUAAGAAAGACAGUCUGCCUGGCAGCUCCUGGUGAACCUGCCUUUCUGUGAAUGUGU	0.311
AUCAGGCCCAGGAUCCCGGACCAAAGACUGAGAUGACCCUUCCAAUAAAAGGCCAUUUCGGACUCUGUCCUGCUUGGACUAAUUGGCCUUCUGGACCCCUCCACUCUGGC	0.254
AUCCUCCUGGCUUCUUACAGAAGAACUGUUGCAGAGUUCACAGCACAGAUGGGCAGAGAUGGUCCCCACAGCUUCAGCCCAUCAUCAUCCCCAGAGGCCGAGCAGGGAGG	0.516
UGCAGUGGUGGUGAGGCCGCCCCGCUCCAUCCCGAGGCAGCCAGGGUUUGUUUUGCGCUCUCCUGUCACAAAUGCUGCACUAUUGGUUCUUAAGUUUUUUAUCUCCAGAU	0.352
GAGAGUUUGCAAACACACAGCGGCCCACAGCUUCACGUGGUGGUGUGCAGUGUGAGGCAGCUCCUUGGCUUUCCUGGUUUUCACAACAAGCUAGAGAUUUUCAAAGCUAC	0.234
AGAUAUGCUAUUUCAUAACUUAUGUAGAAUGAUUUUUAUCUAUAUACUUUGUCCAUAAAAUUAUAAUUGUUUAUGUAAUUUUAUUGUUUCUUAUGGAAACAAUUGGAAAA	0.796
CCUUGGUUGUGAGAUGGGUACAUUCCAAAGGAGCAGCCUGGGGGAGGGGGCAGGCUCAGCCAGCCCUUGGAGGCUCAGAGCAGCUGGCCCAGGCUCCAGCUCGCCUCCAG	0.398

Set 4
Target: ATP-dependent RNA helicase DDX3X, helicase core (DDX3X, Homo sapiens, UniProt O00571, residues 132-607)
Chain of UniProt O00571 (132-607, looked up): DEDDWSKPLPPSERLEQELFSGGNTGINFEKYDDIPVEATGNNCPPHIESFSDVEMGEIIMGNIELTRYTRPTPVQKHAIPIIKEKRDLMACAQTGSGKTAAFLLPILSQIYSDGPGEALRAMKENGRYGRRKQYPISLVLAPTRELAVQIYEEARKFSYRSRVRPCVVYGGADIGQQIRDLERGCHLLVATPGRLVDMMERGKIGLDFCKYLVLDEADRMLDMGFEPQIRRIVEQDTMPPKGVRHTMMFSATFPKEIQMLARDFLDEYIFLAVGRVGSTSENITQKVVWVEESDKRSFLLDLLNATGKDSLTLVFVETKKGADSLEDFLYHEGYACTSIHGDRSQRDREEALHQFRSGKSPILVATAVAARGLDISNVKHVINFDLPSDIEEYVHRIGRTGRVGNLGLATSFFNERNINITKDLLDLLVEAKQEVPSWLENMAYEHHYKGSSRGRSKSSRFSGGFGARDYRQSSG
Method: RNA Bind-n-Seq
Form: RNA
Matrix: in vitro
Tested at: 90 pmol
Notes: 4-mer, random 30-nt RNA, single round
With: 3 µM iPr-DMDA-PatA, 2 mM ADP, 2 mM phosphate
Relative to: input library
Direction: higher = stronger binding
Strand	4-mer enrichment
AAAU	1.47 fold
UCCG	0.871 fold
ACGA	1.16 fold
CUCU	0.853 fold
CGGU	0.707 fold
GAAG	1.35 fold
GCCG	0.715 fold
CGUA	0.925 fold
UAAA	1.46 fold
GGUU	0.872 fold
CGAG	1.02 fold
GCGC	0.711 fold
CCAG	1.03 fold
CGAA	1.21 fold
AAGC	1.04 fold
ACAC	1.21 fold
GUUG	0.881 fold
AUCA	1.14 fold

A few entries again (set 1):
Strand	bound/input enrichment [ratio]
AAAUCGUGUGUGUCCAAUAUUGAAAGUGCUUUAUCUACACUCCAGUAUGUAAGCAGUAUAGUAGUUUCUUUAGAGAAUAGGUCAGCCAUUGUAAAGUACAAUGCAAGCUUAGUCACUCCA	9.31
GAGGGAAGAGAUGAAUCUUCAAGGAUACCUACCUCUGAUACAUCAUCUAGAUCUCAUAUUUUUAGAAGAGAAUCAAAUGAAGUGGUUCACCUUGAAGCACAGAAUGAUCCUCUUGGAGCU	0.562
GGAAGGCGCUGUUUGAAGCUUGUGGCUCUUUGAAGUCUGAAAGACAUCGGCAGAGGACCCUUUAGACGGCACAACUGUUACUCUAGGGAGUUGAUUUUUUUUUCUUAAGAGAUUUAAAAA	1.37
CUGUGUGUAAAAUAUUUAACCAUAAGUCAAGUACAGUGUACUAUGUUUAAUAAAGUUACAUUUAAUGCAUUUAUUGCAUAUAUGAAUAUAUACAUGAAGAGGCUUUAUGUCUUCUGGUAU	0.202
UUUAUCUUAGAAAGCCUUGGGUCAUUCACAGGUAUCCAACCAGCCAUUGUUUAGUUUGUUUUUGAAGGGGUUUGAUAAUGCUUUUUAAGUUGUACAGAAUGCUUAAUCCAUCUUAUUACU	3.68
